Published values of several laboratories.
Numbered parts are unrelated; each lists some results of a single study.

Series 1
Target: Ras GTPase-activating protein-binding protein 1, RRM domain (G3BP1, Homo sapiens, UniProt Q13283)
Sequence of UniProt Q13283 (whole entry, looked up): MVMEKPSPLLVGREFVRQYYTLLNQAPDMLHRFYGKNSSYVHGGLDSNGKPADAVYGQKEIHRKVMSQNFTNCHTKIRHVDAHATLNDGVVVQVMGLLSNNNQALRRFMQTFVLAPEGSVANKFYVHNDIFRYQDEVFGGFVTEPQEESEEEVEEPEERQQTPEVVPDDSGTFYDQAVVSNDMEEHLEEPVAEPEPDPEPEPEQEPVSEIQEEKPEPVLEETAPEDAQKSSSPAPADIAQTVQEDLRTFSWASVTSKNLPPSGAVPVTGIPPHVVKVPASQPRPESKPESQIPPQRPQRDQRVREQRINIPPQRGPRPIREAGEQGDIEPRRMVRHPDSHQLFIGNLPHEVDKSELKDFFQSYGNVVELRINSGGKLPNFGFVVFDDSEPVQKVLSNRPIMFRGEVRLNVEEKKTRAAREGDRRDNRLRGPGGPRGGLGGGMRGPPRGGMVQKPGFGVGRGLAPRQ
Method: RNA Bind-n-Seq
Form: RNA
Matrix: in vitro
Concentration: 1 µM
Setting: whole 134-nt RNA, ends assumed
Together with: 150 mM KCl
Relative to: input library
Reading: higher = stronger binding
Shared flanks, not repeated: GGGAGUUCUACAGUCCGACGAUC … UGGAAUUCUCGGGUGUCAAGG
| Oligonucleotide | log2 enrichment |
| --- | --- |
| CACAGACAACACGCACCCACACAGACACAGAGGGAAGGGGUUGGGAUGGGGACAGGGUGCACAGCAGGGCGGGGUAGGACCCAAACCCCU | -0.212 |
| CUCAAGUCCUGUGCUACACAUCGUAUGUACCGAAUCGGUGGAAAAAAAGGUGGAAAGUAUUAUGUUACGCCGUUCGGAUCUGCACUUCCA | -0.166 |
| AGUCCUGUGCUACACAUCGUAUGUACCGAAUCGGGUUUUUGGGUUUUUGGGAAAGGGAAAGUAUUAUGUUACGCCGUUCGGAUCUGCACU | 0.393 |
| GCAGGAAGUAAAAACAAAUGGAAAUGCUUCUGAUAGUGGCAGGGGUGGGGGUUGCUAAGGAAAGGGUGGGAUGGGAGUGGGUAAAGAGUU | 0.946 |
| CCUGUGCUACACAUCGUAUGUACCGAAUCGGAAAAAAGGGGAAAAAAGGGAAAAAAGGGGAAAGUAUUAUGUUACGCCGUUCGGAUCUGC | 0.0461 |
| AGUCCUGUGCUACACAUCGUAUGUACCGAAUCGGGGUUUUGGGGUUUUGGGUUUUGGAAAGUAUUAUGUUACGCCGUUCGGAUCUGCACU | -0.297 |
| CUCAAGUCCUGUGCUACACAUCGUAUGUACCGAAUCGGGAAGGAAGGGGAAGGAAAGUAUUAUGUUACGCCGUUCGGAUCUGCACUUCCA | -0.275 |
| ACCAUGCAGGUGGGCAUCUUUGGGAAGUGGGGCAAGGGGGGGAUAGGGAGGGGGGUAACAAAAUGGGAACAGGUGGUCCCAGGUCGUUUC | -0.448 |

Series 2
Target: RING finger protein unkempt homolog, zinc fingers 1-6, SBP tag (UNK, Homo sapiens, UniProt Q9C0B0, residues 30-357)
Sequence of UniProt Q9C0B0 (30-357, looked up): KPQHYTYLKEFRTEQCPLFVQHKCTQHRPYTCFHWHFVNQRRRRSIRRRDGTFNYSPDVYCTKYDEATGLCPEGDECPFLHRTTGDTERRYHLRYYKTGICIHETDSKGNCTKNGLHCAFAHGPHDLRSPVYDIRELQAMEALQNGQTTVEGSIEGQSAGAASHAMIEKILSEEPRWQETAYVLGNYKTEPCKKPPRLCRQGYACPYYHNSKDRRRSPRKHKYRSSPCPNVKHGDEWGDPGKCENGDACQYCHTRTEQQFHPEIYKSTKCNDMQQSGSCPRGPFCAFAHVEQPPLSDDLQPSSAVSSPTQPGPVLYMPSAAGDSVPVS
Method: RNA Bind-n-Seq
Form: RNA
Matrix: in vitro
Concentration: 100 nM
Setting: RNA with constant flanks, vertebrate orthologous sites, ends assumed
Relative to: input RNA pool
Reading: higher = stronger binding
Shared flanks, not repeated: GGGAGUUCUACAGUCCGACGAUC … CAACAGAGGAUUGAGCAUCA
| Oligonucleotide | bound/input enrichment |
| --- | --- |
| CACAUCCGGUGAUAUUUGGCCUGGCCUUUCGGCUUAUGAUAAUAGUCCCAGAUCACCCCAUAGUCCUUCACCUAUUGCUACACCACCUAGUCAGAGUUCAUCUUGCUCUGAUGCUCCCAU | 0.792 ratio |
| UUAGGUAGGGGUAACCAUUAAUUUAUUUAAAGUAAAGAAAUGGAAUGUUGAAAAUCAUACUAGUACUAAGCUUAGCUGGAGAAUUUCUCCAGCUACACUUCACGCUCUCAUUCUCCAGUC | 0.874 ratio |
| GCUGUUAAUGCACUGUUAUACCAGGAAUUGUCUGAAGUUAGUGUAAUCUAGAAGAUUUUAUAGUUUUAUUUUAAUGAAGUAUGGAUUGAAGCAAAGCUGUUAGGAGUAUGUAGUCUUUUA | 3 ratio |
| CUGGUCUUCCACUUAGGCUCAGCCUCAGAUCUAUAAGAUUUAUGACAAAUGUAUUCUGUCUCAUUAAGUUGAGUUUAUUAUUUUUUUAAUAAGCCUGUAAAUAAAGAUGGCAUCUUCUAC | 0.515 ratio |
| CGUCCUUGUUAAGCACUGCUUUCCAGACCGUGUCUGACUUAGUCAACCUAGAGGAUUUUAUAGUUUCACUCUAAUGAAGUCCUGAUUAACACAGAGCAGCGGAGCAGCGGUCCCUCCCCU | 0.53 ratio |

Series 3
Target: Histone acetyltransferase KAT6A, both winged helices, GST fusion (KAT6A, Homo sapiens, UniProt Q92794, residues 1-181)
Method: protein binding microarray
Form: double-stranded DNA, one strand shown
Matrix: in vitro
Concentration: not given
Setting: 8-mer, flanks averaged, mean of 2 arrays, mostly near background
Relative to: not given
Reading: higher = stronger binding
Target sequence (chain): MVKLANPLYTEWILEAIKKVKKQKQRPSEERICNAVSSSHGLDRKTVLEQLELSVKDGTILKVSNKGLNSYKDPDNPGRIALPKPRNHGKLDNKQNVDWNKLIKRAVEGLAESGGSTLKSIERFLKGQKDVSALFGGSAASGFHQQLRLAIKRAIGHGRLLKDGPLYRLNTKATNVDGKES
| Oligonucleotide | E-score |
| --- | --- |
| CTCAACGC | 0.128 |
| AGCCGCTC | 0.301 |
| AAAGGAGT | -0.167 |
| CAGTTAGG | -0.25 |
| AGAGCGAG | 0.0459 |
| ATCACCAG | -0.0599 |
| GAGAGCGC | 0.153 |
| TCGAGTCA | -0.0962 |
| ACGGTAGC | 0.183 |
| GAGCGCTA | 0.251 |
| ACGTACGG | 0.234 |
| ACCTTCAT | -0.0554 |
| AAGGCGCC | 0.234 |
| GCCTTACC | -0.0528 |
| ATGCTCCG | 0.106 |
| TGACTGCA | -0.109 |
| CGCCATAG | 0.105 |
| CTTTCATA | -0.0276 |

Series 4
Target: Sal-like protein 4, full length isoform B (SALL4, Homo sapiens, UniProt Q9UJQ4-2, residues 1-616)
Method: universal PBM
Form: double-stranded DNA, one strand shown
Matrix: in vitro
Concentration: not given
Setting: 8-mer, flanks averaged, mean of replicates
Reading: higher = stronger binding
Construct (chain): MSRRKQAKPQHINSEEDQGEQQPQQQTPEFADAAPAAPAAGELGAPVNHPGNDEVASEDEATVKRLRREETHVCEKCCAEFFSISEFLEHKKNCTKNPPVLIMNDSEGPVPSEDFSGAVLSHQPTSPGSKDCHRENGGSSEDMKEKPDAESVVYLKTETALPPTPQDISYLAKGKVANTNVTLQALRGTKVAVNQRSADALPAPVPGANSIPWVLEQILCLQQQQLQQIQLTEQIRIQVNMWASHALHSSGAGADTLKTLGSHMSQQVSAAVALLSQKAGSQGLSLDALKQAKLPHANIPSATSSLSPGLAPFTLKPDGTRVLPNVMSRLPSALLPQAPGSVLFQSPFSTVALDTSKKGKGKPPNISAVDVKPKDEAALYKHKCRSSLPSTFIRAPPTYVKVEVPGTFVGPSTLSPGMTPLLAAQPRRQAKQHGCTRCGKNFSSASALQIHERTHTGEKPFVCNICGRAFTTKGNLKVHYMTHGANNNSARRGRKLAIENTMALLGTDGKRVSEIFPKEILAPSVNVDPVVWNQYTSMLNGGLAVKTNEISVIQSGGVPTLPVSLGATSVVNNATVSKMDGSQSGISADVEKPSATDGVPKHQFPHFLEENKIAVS
| Oligonucleotide | E-score |
| --- | --- |
| AAAAGAAG | 0.179 |
| ACGGGCGC | -0.218 |
| ATTTCGTA | 0.187 |
| CTCCACCA | -0.232 |
| CCGAAACG | -0.197 |
| ACTTCCAC | -0.131 |
| GCTTAGTA | 0.11 |
| CCTTAGGA | -0.0207 |
| ACCTTAGT | -0.0186 |
| CAATCAGC | -0.0887 |
| TCTGTTCA | -0.0248 |
| GTGCCTCA | -0.221 |
| GGCACAAC | -0.161 |
| AGGTTGAC | -0.0554 |
| CGCATACC | 0.0139 |
| CATTCTGA | 0.0472 |
| GCGAGTGA | -0.0675 |
| CTAGCAAG | -0.218 |
| CTGTCCTA | -0.043 |
| ACCTCAGT | -0.00981 |
| ACTGAGCT | -0.135 |
| CAGTATCC | 0.0144 |
| ATCTTCGG | 0.106 |

Repeated from above (series 4):
| Oligonucleotide | E-score |
| --- | --- |
| ATTTCGTA | 0.187 |
| CTCCACCA | -0.232 |
| CCGAAACG | -0.197 |
| ACTTCCAC | -0.131 |
| GCTTAGTA | 0.11 |
| CCTTAGGA | -0.0207 |
| ACCTTAGT | -0.0186 |
